# Published values gathered from unrelated publications.
# A part holds a random share of what one study measured. Changes are numbered by the printed parent chain.

# Study 1 — method: protein binding microarray; molecule type: double-stranded DNA, one strand shown; matrix: in vitro; concentration: not given; relative to: not given; reading: higher = stronger binding
# Target: Histone acetyltransferase KAT6A, both winged helices, GST fusion (KAT6A, Homo sapiens, UniProt Q92794, residues 1-181)
# Setting: 8-mer, flanks averaged, mean of 2 arrays, mostly near background
# Construct (chain): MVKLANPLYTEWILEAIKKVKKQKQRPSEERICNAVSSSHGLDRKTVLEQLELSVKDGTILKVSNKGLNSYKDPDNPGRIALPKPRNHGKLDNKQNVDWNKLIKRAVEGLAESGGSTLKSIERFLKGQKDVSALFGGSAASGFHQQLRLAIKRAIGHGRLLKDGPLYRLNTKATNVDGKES
Oligonucleotide,E-score
GTATGAAC,0.0564
CTGTAGAC,0.0458
GACTTCTC,-0.118
CCCCCTCC,-0.249
ACAGACGA,-0.00502
AACTCATG,-0.0283
AAGCTCCA,-0.0995
CATTCGGG,0.112
GAAGTTCC,0.0714
ATGGTAGC,0.025
ACATGCTA,-0.0945
AAAATGGC,0.025
ATTGTGGA,-0.36
AATGCGTG,0.0108
ATGCCGTC,0.32
ATAAGCAA,-0.139
ACGTCTAG,0.0587
CAATGACC,-0.0821
GAATGGCC,-0.0661
ACTGGGCC,-0.0768
CCCGAATC,0.000255
ATCATTAG,-0.122
CCGCCTGA,0.226

# Study 2 — Molecule: RNF13 RING domain (UniProt O43567); method: yeast two-hybrid; matrix: yeast; setting: mostly zero background; relative to: not given; reading: higher = stronger interaction
target,lacZ reporter activity
UBE2J1 UBC core domain (UniProt Q9Y385),0
UBE2E3 UBC core domain (UniProt Q969T4),6600
UBE2T UBC core domain (UniProt Q9NPD8),0
UBE2C UBC core domain (UniProt O00762),0
UBE2Q1 UBC core domain (UniProt Q7Z7E8),0
BIRC6 UBC core domain (UniProt Q9NR09),0
UBE2O UBC core domain (UniProt Q9C0C9),0
UBE2D1 UBC core domain (UniProt P51668),7230
UBE2G1 UBC core domain (UniProt P62253),0
UBE2B UBC core domain (UniProt P63146),0
UBE2J2 UBC core domain (UniProt Q8N2K1),0
UBE2M UBC core domain (UniProt P61081),0
UBE2R2 UBC core domain (UniProt Q712K3),0
UBE2L3 UBC core domain (UniProt P68036),0
UBE2S UBC core domain (UniProt Q16763),0
UBE2Z UBC core domain (UniProt Q9H832),0
UBE2I UBC core domain (UniProt P63279),0

# Study 3 — method: protein-binding microarray; molecule type: double-stranded DNA, one strand shown; matrix: in vitro; concentration: not given; reading: higher = stronger binding
# Target: Transcription factor Sp1 (SP1, Homo sapiens, UniProt P08047, residues 1-785, full length assumed)
# Setting: k-mer, scored over probes, only values ≥0.25
Oligonucleotide,E-score
ATGATACG,0.27
AACCTCCC,0.269
ATTAGGGG,0.309
GGGCGTCA,0.302
ACCCACCT,0.264
CCCTCCCA,0.477
GGGGAAAA,0.264
TATGGGGA,0.337
GGGAGGGA,0.416
CATTGTAC,0.288
AATGGGCG,0.257
CACCGCCC,0.418
CCCGACCC,0.287
GCATTATA,0.282
GCCCCAAC,0.344
ATAAGTAC,0.257
AGGGATGG,0.291
AAAGGGGC,0.306
AATTTCCC,0.284
GGGCGGAA,0.381
AAGGGGTG,0.348
ATGTAGTA,0.305
AAGGAGGG,0.279
CCTACAAC,0.252
GAGGGGCC,0.297

# Study 4 — method: RNAcompete; molecule type: RNA; matrix: in vitro; concentration: 20 nM; setting: 7-mer, probes averaged, single round; relative to: mean of 7-mers; reading: higher = stronger binding
# Target: PABPC1L2, full length, GST fusion (mouse, UniProt A0ABA7IW68)
# Target sequence (chain): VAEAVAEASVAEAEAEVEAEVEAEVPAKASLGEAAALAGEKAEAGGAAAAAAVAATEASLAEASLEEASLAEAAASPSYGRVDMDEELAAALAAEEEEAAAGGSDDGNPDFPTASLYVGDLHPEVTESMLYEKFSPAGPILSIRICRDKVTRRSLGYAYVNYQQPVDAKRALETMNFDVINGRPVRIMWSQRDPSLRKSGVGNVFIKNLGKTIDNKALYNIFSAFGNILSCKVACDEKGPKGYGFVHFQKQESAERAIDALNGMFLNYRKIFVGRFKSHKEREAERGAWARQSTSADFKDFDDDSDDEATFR
Oligonucleotide,7-mer Z-score
AAACAGA,3.87
AAGAUUG,0.374
GGGGACC,0.16
UGGAUCA,-0.0917
ACACACC,-0.0156
UUGACGG,-0.0464
GAUUAAU,-0.141
UUUUCAU,-0.431
AUCCAGC,-0.175
CGGAACG,-0.157
AACAGAC,0.515
UCUAAGC,-0.316
CACACAG,-0.106
ACGAACC,-0.0989
GUACGUU,-0.331
UCCCAGU,-0.262
AGCGUUC,-0.364
GGUGCAG,0.164
CGGCAAG,0.189
UUGAUGU,-0.258
AUACCAC,-0.0953
GACCAGC,-0.135
CCGCCGC,-0.371
AGCCUUC,-0.445
AUUAGUG,-0.132

# Study 5 — target: CEBPE, bZIP domain (human); method: DHFR protein complementation; matrix: yeast; relative to: wild-type JUN-FOS pair; reading: higher = stronger binding
# Setting: single substitutions, most at no-binding floor
# Starting sequence: JUN, bZIP domain (human); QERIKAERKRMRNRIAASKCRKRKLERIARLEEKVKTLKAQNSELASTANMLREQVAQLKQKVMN; partner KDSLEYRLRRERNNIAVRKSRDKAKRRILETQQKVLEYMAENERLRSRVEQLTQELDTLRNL
Variant,binding fitness
L38A,-1.51 natural log
Q55K,-1.1 natural log
S47K,-0.824 natural log
E33Q,-1.29 natural log
A49T,-1.43 natural log
N42M,-1.47 natural log
E33S,-1.25 natural log
T37G,-1.27 natural log
N42G,-1.44 natural log
S43F,-1.17 natural log
A49H,-1.37 natural log
E33A,-1.15 natural log
R30N,-1.14 natural log
Q41S,-1.61 natural log
A49F,-1.35 natural log
Q55N,-1.47 natural log
E32L,-1.36 natural log
N42C,-1.41 natural log

# Study 6 — method: DHFR PCA, deep sequencing; matrix: yeast; together with: (+)-ABA 0.032 µM; relative to: wild-type fitted maximum; reading: higher = stronger binding
# Target: ABI1, truncated, D143A, DHFR fusion (Arabidopsis thaliana)
# Setting: methotrexate growth selection, single substitutions
# Starting sequence: PYL1, truncated, DHFR fusion (Arabidopsis thaliana); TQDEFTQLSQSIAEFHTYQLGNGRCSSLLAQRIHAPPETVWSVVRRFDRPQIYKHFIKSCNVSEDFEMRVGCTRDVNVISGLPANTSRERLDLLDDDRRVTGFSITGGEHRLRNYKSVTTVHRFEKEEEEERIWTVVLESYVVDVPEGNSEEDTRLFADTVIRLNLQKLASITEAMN; partner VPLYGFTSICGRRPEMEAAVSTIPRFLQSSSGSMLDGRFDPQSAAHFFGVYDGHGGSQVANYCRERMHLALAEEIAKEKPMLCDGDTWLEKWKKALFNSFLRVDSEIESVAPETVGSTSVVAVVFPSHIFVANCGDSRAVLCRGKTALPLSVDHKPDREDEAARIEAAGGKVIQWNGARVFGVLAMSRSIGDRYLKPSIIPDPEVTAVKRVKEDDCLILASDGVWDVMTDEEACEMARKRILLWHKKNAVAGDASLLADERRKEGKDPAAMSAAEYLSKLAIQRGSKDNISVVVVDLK
Variant,relative binding score [%]
P37V,11.2
K54E,1.61
N165K,1.5
K116R,36.3
P36A,13.6
T154M,1.45
A175P,-1.23
T119H,-3.47
V100T,1.22
H16M,4.15
N165Q,4.32
Q10P,32.7
P50H,-8.54
H110Q,42.2
A13F,-0.692
Y53Q,-4
V137D,-6.08
R74C,3.05
P37E,-9
V43Y,-4.31
T86S,19.5
P37W,-1.31

# Study 7 — target: CCND1, cyclin fold, Cln2 fusion (human); method: yeast growth competition, sequencing; matrix: yeast; setting: weak parent motif; relative to: not given; reading: higher = stronger binding
# Starting sequence: BORA docking peptide (human); SSLRRKLFLDGNG; partner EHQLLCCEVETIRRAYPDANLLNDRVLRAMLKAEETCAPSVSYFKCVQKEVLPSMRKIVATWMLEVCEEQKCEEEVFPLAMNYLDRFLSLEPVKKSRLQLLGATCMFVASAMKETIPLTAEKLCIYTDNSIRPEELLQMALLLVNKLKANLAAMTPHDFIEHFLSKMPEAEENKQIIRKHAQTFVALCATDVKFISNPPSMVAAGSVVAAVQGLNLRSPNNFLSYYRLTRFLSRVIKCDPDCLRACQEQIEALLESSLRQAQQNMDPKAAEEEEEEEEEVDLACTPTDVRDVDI
Variant,normalised enrichment score
L9F,0.468
R5K,0.455
S2A,0.494
R5A L7A,-0.236
N12A,0.769
L3A,0.649
R5K L9F,0.756
G11A,0.322
R4A,0.134
D10A,0.291
L9A,-0.405

# Excerpt of the above (study 6):
Variant,relative binding score [%]
T154M,1.45
A175P,-1.23
T119H,-3.47
V100T,1.22
H16M,4.15
N165Q,4.32
Q10P,32.7
P50H,-8.54
H110Q,42.2
A13F,-0.692
Y53Q,-4
V137D,-6.08
R74C,3.05
P37E,-9
V43Y,-4.31
T86S,19.5
P37W,-1.31
